Measurements pooled from the literature.
Parts stem from different laboratories: compare values within a part only. Changes are numbered by the printed parent chain.
Sequence of UniProt Q04912 (whole entry, looked up): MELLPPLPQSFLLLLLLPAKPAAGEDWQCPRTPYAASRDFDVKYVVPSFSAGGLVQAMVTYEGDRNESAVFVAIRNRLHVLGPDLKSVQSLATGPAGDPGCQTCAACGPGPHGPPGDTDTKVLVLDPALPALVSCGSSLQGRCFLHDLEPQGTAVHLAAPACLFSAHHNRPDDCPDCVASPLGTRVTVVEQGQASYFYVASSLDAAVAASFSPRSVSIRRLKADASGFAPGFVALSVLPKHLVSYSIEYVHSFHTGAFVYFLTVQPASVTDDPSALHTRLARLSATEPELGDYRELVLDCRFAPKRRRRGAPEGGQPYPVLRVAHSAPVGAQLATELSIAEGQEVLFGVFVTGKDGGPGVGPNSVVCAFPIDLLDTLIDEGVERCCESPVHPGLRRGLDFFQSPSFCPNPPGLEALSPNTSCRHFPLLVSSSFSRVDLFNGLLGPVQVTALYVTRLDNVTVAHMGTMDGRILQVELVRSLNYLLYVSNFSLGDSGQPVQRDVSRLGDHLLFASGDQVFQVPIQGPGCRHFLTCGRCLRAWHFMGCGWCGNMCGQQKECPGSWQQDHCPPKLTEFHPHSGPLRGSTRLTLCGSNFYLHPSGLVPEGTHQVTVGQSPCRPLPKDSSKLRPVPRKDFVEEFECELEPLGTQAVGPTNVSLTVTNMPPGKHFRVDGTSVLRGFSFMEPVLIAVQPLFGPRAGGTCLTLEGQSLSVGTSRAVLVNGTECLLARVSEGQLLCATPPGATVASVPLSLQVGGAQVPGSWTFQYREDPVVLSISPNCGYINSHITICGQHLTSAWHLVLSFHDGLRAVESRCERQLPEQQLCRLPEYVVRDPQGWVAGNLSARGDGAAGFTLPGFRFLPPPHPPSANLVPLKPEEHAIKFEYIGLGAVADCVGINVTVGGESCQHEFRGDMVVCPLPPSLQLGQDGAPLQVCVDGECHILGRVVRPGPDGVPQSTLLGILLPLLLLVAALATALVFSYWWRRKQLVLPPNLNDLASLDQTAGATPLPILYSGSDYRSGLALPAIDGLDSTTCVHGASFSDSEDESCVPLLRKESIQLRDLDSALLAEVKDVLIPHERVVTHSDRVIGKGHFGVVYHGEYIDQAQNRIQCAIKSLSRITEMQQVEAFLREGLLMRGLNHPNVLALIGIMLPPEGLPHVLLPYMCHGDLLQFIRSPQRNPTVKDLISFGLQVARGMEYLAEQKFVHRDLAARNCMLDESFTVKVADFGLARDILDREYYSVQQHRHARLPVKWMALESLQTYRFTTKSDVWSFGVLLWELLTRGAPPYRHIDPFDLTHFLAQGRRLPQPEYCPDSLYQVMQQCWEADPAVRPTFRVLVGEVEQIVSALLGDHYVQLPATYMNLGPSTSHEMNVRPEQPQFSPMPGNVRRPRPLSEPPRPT
Sequence of UniProt Q6PHR2 (whole entry, looked up): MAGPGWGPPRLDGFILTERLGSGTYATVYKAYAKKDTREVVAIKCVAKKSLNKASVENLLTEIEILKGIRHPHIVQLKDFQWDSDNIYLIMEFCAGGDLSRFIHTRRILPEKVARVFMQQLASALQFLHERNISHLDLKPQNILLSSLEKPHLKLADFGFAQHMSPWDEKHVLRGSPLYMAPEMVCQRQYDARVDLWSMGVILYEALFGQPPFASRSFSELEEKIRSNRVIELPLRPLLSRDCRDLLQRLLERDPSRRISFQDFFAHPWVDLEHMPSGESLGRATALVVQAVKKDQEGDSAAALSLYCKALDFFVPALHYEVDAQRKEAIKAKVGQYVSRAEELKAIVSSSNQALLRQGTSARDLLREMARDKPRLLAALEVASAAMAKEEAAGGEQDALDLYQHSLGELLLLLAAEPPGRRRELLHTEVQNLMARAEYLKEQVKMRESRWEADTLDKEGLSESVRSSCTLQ
Sequence of UniProt O75116 (whole entry, looked up): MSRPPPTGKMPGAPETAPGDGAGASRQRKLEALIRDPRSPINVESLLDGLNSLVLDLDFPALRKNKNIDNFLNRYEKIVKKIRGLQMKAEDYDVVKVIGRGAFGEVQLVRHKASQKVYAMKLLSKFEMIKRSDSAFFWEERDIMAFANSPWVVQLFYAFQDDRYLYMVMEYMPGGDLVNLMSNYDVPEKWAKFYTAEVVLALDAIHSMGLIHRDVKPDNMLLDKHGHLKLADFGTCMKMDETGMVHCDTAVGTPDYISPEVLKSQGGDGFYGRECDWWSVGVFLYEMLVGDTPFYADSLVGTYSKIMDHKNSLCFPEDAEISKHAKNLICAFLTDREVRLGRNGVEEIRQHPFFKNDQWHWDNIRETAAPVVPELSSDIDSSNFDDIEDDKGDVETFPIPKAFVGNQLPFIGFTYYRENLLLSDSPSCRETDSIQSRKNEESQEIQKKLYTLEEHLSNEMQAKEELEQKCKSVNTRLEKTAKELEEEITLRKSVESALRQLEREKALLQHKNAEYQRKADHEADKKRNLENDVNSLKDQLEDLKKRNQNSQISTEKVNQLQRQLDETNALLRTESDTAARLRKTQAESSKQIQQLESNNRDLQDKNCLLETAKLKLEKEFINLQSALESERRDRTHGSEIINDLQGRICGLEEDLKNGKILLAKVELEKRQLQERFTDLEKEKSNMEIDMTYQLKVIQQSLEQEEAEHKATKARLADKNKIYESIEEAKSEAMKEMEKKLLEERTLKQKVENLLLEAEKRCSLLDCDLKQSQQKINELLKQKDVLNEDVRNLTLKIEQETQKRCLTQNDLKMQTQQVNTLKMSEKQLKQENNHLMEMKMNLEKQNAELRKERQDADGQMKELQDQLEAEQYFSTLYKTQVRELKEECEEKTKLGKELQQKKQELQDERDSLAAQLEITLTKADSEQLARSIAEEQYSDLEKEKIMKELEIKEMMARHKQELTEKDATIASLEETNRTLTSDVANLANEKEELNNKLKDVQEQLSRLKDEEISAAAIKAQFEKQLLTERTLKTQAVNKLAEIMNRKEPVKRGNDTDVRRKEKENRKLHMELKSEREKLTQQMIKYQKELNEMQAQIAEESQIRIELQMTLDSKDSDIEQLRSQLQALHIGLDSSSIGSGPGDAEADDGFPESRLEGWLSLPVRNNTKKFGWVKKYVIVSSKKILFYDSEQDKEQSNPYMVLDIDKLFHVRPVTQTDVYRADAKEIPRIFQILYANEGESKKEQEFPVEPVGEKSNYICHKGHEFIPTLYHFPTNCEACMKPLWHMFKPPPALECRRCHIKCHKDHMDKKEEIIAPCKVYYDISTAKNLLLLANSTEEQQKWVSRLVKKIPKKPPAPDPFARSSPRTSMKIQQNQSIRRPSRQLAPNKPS
Sequence of UniProt Q15349 (whole entry, looked up): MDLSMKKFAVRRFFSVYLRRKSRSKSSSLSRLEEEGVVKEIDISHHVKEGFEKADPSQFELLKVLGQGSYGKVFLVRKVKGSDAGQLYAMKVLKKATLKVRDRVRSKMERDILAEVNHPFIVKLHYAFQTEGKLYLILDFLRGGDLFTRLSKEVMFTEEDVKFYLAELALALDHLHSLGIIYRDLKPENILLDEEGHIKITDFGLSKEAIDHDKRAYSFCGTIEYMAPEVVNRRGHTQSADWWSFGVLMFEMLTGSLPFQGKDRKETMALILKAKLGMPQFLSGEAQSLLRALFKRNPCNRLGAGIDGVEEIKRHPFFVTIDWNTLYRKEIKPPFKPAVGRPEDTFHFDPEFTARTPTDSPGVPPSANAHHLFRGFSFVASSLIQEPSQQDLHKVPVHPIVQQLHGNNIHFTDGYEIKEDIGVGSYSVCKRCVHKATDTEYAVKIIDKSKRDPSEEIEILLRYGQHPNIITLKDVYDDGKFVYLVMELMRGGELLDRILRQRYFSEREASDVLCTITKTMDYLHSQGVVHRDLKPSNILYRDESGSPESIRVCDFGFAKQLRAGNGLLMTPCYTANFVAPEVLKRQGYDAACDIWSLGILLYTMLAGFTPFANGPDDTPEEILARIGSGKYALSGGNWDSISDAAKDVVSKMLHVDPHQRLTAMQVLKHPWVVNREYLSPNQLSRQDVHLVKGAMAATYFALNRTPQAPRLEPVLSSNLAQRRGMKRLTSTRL
Sequence of UniProt P36894 (whole entry, looked up): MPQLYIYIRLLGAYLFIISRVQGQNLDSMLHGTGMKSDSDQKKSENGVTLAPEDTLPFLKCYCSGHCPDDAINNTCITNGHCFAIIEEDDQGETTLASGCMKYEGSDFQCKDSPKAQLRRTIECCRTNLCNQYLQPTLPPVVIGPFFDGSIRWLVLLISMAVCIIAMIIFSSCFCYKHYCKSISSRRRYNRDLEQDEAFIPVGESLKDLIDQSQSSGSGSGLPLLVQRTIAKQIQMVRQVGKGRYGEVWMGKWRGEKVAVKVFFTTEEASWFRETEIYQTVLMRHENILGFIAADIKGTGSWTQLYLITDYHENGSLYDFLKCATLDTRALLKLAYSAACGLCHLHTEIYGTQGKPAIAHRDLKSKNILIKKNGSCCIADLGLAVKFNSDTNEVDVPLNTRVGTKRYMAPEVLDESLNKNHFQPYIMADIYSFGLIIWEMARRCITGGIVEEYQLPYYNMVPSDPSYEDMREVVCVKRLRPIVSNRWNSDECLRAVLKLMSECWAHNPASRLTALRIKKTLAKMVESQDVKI
Sequence of UniProt Q8WTQ7 (whole entry, looked up): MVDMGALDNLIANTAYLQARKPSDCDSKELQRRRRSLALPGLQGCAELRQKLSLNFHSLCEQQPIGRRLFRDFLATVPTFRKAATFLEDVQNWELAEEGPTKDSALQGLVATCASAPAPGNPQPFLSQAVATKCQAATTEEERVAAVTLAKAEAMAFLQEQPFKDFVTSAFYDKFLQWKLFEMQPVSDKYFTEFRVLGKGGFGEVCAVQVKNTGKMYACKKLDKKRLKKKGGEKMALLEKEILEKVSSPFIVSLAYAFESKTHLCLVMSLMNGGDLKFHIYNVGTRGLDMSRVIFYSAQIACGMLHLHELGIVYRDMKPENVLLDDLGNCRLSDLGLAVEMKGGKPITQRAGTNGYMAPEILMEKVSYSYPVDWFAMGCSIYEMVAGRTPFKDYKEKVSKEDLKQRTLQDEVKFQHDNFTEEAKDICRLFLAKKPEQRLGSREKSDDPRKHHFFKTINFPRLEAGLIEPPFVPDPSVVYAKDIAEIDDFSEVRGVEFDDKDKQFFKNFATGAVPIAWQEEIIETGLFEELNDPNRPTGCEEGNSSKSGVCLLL

Series 1 — technique: EMSA with sequencing; form: double-stranded DNA, one strand shown; matrix: in vitro; tested at: 10 and 20 nM; relative to: negative control set to 0; direction: higher = stronger binding; endpoint: normalised bound fraction
Target: Hepatocyte nuclear factor 3-alpha (Foxa1, Mus musculus, UniProt P35582, residues 1-468, full length assumed)
Notes: whole designed probe, mean of two concentrations, ends assumed
Shared flanks, not repeated: GTGAGCGGTGCCCATTGATGGGGAAC … TTTCACTGGGATCGTGGGGAC
Residues (chain): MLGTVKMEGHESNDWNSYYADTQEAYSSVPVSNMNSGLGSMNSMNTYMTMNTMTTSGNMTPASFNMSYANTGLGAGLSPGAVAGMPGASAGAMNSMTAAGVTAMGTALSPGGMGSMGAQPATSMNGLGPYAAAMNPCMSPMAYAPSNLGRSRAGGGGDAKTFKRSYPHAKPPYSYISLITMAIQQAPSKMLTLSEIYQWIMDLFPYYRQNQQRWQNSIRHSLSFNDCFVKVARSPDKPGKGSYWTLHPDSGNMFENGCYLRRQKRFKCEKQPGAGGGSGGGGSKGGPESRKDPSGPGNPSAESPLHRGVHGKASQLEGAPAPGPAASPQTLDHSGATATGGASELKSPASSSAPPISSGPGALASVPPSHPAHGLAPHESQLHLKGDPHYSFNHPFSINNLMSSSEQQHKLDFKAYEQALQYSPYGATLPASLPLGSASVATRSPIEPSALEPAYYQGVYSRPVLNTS
ATCTTCCCCCTCTTCCTTGCCCCACCAGCTCACCTACGGGGGTTATTTGCACAAAGGAAAATAAATAAAGCCGGCATTCGTTAACCCTCTTCACGCGCATACTGCTGTTTGCTCTGCATCTAACATGGTCCTTACGCGACGCCAGGCTCCGGGAGAGCAAAGCACCGTGTCAGGCGCATGATCCGGGGTGGCC: 0.389 ratio
GAAAATATTTATAGTTTCTCTAGGTTGTCAAGAATTGAATTCCTTTTAAATGTAGGCGATGTCATTTTATTTTCTTAGATTACTTTGAACTTAAGATTACTCTTAATGAGGTAAATTACTTTTCCTACTTGAATTCAGAATGGAAACCATCTGTGACAGGGTTTATATTAACATGACTTTACTATCCACCTGT: -0.0211 ratio
ATCTTCCCCCTCTTCCTTGCCCCACCAGCTCACCTACGGGGGTTATTTGCAGATAGGAAAATAAATAAAGCCGGCATTCGTTAACGCAGTTCTGGCGCAAACTGCTGTTTGCTCTGCATCTAACATGGTCCTTACGCGACGCCAGGCTCCGGGAGAGCAAAGCACCGTGTCAGGCGCATGATCCGGGGTGGCC: 0.359 ratio
AAGACAAATAAGAAAGATATTTCCTCCCCTACATTATCTGGATTTCTCCATGAAACACCCATTATGGCATAGACAAATTGGTTACTATCTTAAGTAAACATTGGTAGGAAAACTTTGAAAAGGCAACTGAGCTTACTTTTGGGTCATGTGTCACCTGTCAAAAATATAACTCTGGAAAAACTGTAAAGTTGGG: 0.5 ratio
GGGTCCCGGGCGGCGGCAGGAATGCAGGAATGCGCACAGGCTGTGGGCGGCCAGGAGGGGGCGGAAGTGAGTCCCGGCGCCTGCCCCAGTCTTTGTGTACCCTGTCCAACACCTCCCCCCGCCAGCGCGGAAGGCCGGGCTACCTGCGCGCCTGGCAGCGCCTGGCAGCCGGCTGGGTGGGGCGCAGGGGAGC: 0.000433 ratio
CTATTGTCAGATATAACCAGAAAAAAATAGAATTTTAAGTGAGCAGGATAACTTAGTTAAACTAACCAAACATAGTGTTAGCTGTTAGAGAAATGTAAACATGGAAATAGGCAAACAGGGAAGTGTGTGGAGTTTCTGTTTCCTTTTCAAAATATCTGTTTGAGCTGGGGTTGAGAGAGAACACTAGGCTTCA: 0.433 ratio
TTCTGAAATGTCTCCCTCAGCTTCTCTCATTCAAACGTAGACTCTGATCAATTTCACCATCAATGCCATTGCACAGAGACAGCGCTTTGACTAAGTAAACAAGACATCTTTTTCAACTAGTGCAGCCCAATGAATGTGGTTAATAATTAAGTGACTAATATTTTGTAAGGCTGTGTGAGAAGCATTAATTAGG: 0.505 ratio
CAGGTTCATAGATCTAACAAATCAGAGAGCCAAGAGTGAAATCAGGCCAAATTAACATCCATTACACAATGCTGTCTCCCAAGCTCCAAGTCTGTTTACCCTGGGCAAATATTACACTTATATTTCAAAAGCAAAGGGAAGAGAGGGAAGTGGATGCTTCTAAATGCAGGAGAAGCAAATGGAAAATTTTGTG: 0.216 ratio

Series 2 — effect on: enzyme activity; action: inhibitor; tested at: 0.5 µM; relative to: control; endpoint: remaining activity
Structure (SMILES): CCCC(=O)Oc1ccc2[nH]c(C(=O)c3cc4ccccc4[nH]3)cc2c1
Tyrosine-protein kinase JAK3 (JAK3, Homo sapiens, UniProt P52333): 95.6%
Tyrosine-protein kinase FRK (FRK, Homo sapiens, UniProt P42685): 98.2%
Serine/threonine-protein kinase Nek6 (NEK6, Homo sapiens, UniProt Q9HC98): 101%
MAP kinase-activated protein kinase 2 (MAPKAPK2, Homo sapiens, UniProt P49137): 92.4%
Rhodopsin kinase GRK7 (GRK7, Homo sapiens, UniProt Q8WTQ7): 105%
Tyrosine-protein kinase Lck (LCK, Homo sapiens, UniProt P06239): 94%
Mitogen-activated protein kinase 3 (MAPK3, Homo sapiens, UniProt P27361): 87.9%
Casein kinase I isoform gamma-3 (CSNK1G3, Homo sapiens, UniProt Q9Y6M4): 82.7%
Serine/threonine-protein kinase ULK3 (ULK3, Homo sapiens, UniProt Q6PHR2): 89.5%
Macrophage-stimulating protein receptor (MST1R, Homo sapiens, UniProt Q04912): 103%
Mitogen-activated protein kinase kinase kinase 5 (MAP3K5, Homo sapiens, UniProt Q99683): 103%
Fibroblast growth factor receptor 1 (FGFR1, Homo sapiens, UniProt P11362): 96%
Serine/threonine-protein kinase TAO2 (TAOK2, Homo sapiens, UniProt Q9UL54): 110%
Ribosomal protein S6 kinase alpha-2 (RPS6KA2, Homo sapiens, UniProt Q15349): 85%

Series 3 — technique: competition with immobilised ligand; tested at: 1 µM; endpoint: remaining binding
SMILES: CCC(=O)N[C@@H]1CC[C@H](C(=O)N(C)c2ccc(-c3nc4ccccc4o3)cc2)C1
Bone morphogenetic protein receptor type-1A (BMPR1A, Homo sapiens, UniProt P36894); binding: 96%
Dual specificity protein kinase TTK (TTK, Homo sapiens, UniProt P33981); cell-free assay: 100%
Serine/threonine-protein kinase D2 (PRKD2, Homo sapiens, UniProt Q9BZL6); cell-free assay: 100%
Rho-associated protein kinase 2 (ROCK2, Homo sapiens, UniProt O75116); cell-free assay: 100%

Series 4 — target: CEBPD, bZIP domain (human); technique: DHFR protein complementation; matrix: yeast; relative to: wild-type JUN-FOS pair; direction: higher = stronger binding; endpoint: binding fitness
Notes: single substitutions, most at no-binding floor
Parent: JUN, bZIP domain (human); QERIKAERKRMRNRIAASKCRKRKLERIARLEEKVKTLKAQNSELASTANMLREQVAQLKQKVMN; partner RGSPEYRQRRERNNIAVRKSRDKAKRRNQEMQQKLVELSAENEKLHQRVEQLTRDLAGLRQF
A29M: -1.38 natural log
E54F: -1.44 natural log
Q55A: -1.45 natural log
V35L: -1.25 natural log
S47N: -1.34 natural log
A46N: -1.38 natural log
I28H: -1.27 natural log
N42A: -1.41 natural log
